Measurements gathered from unrelated publications.
Each numbered part is a random draw from the data of one study; scales do not carry over between parts.

Study 1 — technique: protein binding microarray; form: double-stranded DNA, one strand shown; medium: in vitro; tested at: not given; reference: not given; reading: higher = stronger binding
Target: Histone acetyltransferase KAT6A, both winged helices, GST fusion (KAT6A, Homo sapiens, UniProt Q92794, residues 1-181)
Setting: 8-mer, flanks averaged, mean of 2 arrays, mostly near background
Construct (chain): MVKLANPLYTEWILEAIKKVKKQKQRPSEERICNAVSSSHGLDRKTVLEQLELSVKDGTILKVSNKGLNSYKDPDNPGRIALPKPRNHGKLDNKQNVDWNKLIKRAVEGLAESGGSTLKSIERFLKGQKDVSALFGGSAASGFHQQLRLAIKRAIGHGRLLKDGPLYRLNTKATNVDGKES
| Oligonucleotide | E-score |
| --- | --- |
| GACAGCTA | -0.165 |
| GACAGCGC | 0.308 |
| AGAATGAC | -0.0998 |
| CCGCATCA | 0.177 |
| GCCACAAA | -0.0707 |
| CCAACGCG | 0.258 |
| AGTGGTAT | -0.214 |
| AAAAAGGA | -0.207 |
| ATTATTAG | 0.0906 |
| AACTACCT | -0.143 |
| AATAGATT | -0.0942 |
| GCGGGTAA | 0.254 |
| AGTTTTGA | -0.103 |
| CTTAATTC | -0.176 |
| AGTCAACC | -0.187 |
| ATTAGTAA | -0.0918 |

Study 2 — technique: RNA Bind-n-Seq; form: RNA; medium: in vitro; tested at: not given; setting: RNA with constant flanks, ends assumed; reference: input RNA pool; reading: higher = stronger binding
Target: RING finger protein unkempt homolog, zinc fingers 1-6, GST-SBP tag (UNK, Homo sapiens, UniProt Q9C0B0, residues 30-357)
Chain of UniProt Q9C0B0 (30-357, looked up): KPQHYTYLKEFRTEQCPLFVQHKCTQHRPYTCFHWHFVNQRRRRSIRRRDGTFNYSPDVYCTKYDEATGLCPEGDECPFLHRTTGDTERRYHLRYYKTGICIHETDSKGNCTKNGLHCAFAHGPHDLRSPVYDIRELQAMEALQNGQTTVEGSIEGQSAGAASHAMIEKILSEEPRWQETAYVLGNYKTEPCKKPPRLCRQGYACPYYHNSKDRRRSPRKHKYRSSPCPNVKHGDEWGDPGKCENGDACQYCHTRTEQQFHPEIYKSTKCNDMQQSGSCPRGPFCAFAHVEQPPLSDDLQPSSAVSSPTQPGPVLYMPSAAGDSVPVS
All sequences stand within: GGGAGUUCUACAGUCCGACGAUC … CAACAGAGGAUUGAGCAUCA
| Oligonucleotide | bound/input enrichment [ratio] |
| --- | --- |
| GCUUGCUUGAACGGGUCUCCUCAGCGGCGGCUGGAGUCGAAUUUGGAAAUACUGCACAUCCCGUUGGCUCCAAAUUGUAAACCACAGGAUGAGUAUUCAGUGGGCAUGAGAGAUUGAGAA | 0.313 |
| UGUGUGCGUGCCCGAGUGUGCGCGCGCGGGUGUGUGGACUCGGAGGUGGGGGCAGCCGAGUCCGUCCCAAGUCGUCGGACUCCAUUUGCUAUUCUUUUCUUUCUCUCCCACACCCGUGUG | 0.333 |
| UCUGUGUAUGCACACUCCACCCCAGAGUGUUUUCAGUGUGCCAGAGAAGCAGCUGCCGCGUCCGGACAUGAGCCUGUCUAGUGUUUCCUAGGAAAGGGAUAGUUUUCUGUUGGUAUAGCA | 3.49 |
| GGCUAUGAUGUUUUAGCCAACCCCCCAGGACCAGAAGACCAGGAUGAUGAUGACGAUGCCUACCGCGAUGUGUUUGAAUUUGAAUUUUCAGAGACCCCCCUCUUACCGUGUUAUAACAUC | 0.487 |
| GUCCAGCGUAAGAGGGAGCUGUGGCCAAGAGAGAAGGAGGGUCAGCGCCAGGAGCCCGAAGAAUUUAAGCAGAAGAUCCGGAAGCAGAAAGAAGAGAGACUUCUUCAAGCUGCCCAGCAG | 0.176 |
| GUAAUAGUAGCAAAUCCUAGGGAAGAAAUAAUCGUGAAAAAUAAAGAUGAAGAAGAGAAGUCCGUCCGUAAUAACAUCCUUCAUAAUCAACAAGAGUUACCUACAGCUCUUACUAAAUUG | 1.8 |
| AUUAAAAAUGCCUGUUUACAAACGUCUUCCCUUGCUGUCCGUGUGAAUUCAUUAGUGUGCUCCGGGAAGAUCCUGGAGUACCUGGAUAAGUGGUUUGUGCUUGAUGAUAUCCUACCCUUC | 0.232 |
| GGCUGUGGAAUCAGUCCAGAAAUUCAUUGUGAUGGUGGCCACACAUUCAGACCUCCUUCUGUCCGCAACUACUGCAUCUGUGACAUUACAAAUGGCAAUCACAGUGUGGAUGAGAUGCCG | 0.202 |

Study 3 — technique: RNA Bind-n-Seq; form: RNA; medium: in vitro; tested at: 200 nM; setting: whole 134-nt RNA, ends assumed; with: 150 mM KCl; reference: input library; reading: higher = stronger binding
Target: Ras GTPase-activating protein-binding protein 1, full length (G3BP1, Homo sapiens, UniProt Q13283)
Chain of UniProt Q13283 (whole entry, looked up): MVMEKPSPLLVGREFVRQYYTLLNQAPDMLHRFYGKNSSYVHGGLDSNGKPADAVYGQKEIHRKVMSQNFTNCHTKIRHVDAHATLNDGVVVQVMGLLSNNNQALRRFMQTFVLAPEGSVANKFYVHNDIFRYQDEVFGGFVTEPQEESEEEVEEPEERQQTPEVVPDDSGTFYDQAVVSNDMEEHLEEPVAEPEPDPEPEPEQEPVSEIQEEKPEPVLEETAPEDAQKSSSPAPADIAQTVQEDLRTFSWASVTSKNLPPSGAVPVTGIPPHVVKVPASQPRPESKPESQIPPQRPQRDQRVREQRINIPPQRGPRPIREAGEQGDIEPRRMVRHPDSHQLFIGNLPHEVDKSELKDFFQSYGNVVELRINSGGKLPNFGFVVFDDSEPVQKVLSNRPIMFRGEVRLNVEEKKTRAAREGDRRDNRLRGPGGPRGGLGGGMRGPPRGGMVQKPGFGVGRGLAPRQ
All sequences stand within: GGGAGUUCUACAGUCCGACGAUC … UGGAAUUCUCGGGUGUCAAGG
| Oligonucleotide | log2 enrichment |
| --- | --- |
| ACCAUGCAGGUGGGCAUCUUUGGGAAGUGGGGCAAGGGGGGGAUAGGGAGGGGGGUAACACUUUGGGAACAGGUGGUCCCAGGGCGUUUC | 1.23 |
| CCUCAAGUCCUGUGCUACACAUCGUAUGUACCGAAUCGGGUGGGAGGGUGGGAAAGUAUUAUGUUACGCCGUUCGGAUCUGCACUUCCAG | 0.349 |
| GCAGGAAGUAAAAACAAAUGGAAAUGCUUCGGAUAGUGGCAGGUGUGGGGGUUGCUAAGGAAAGGGUGGGAUGGGAGUGGGUAAAGAGUU | 0.936 |
| GUCCUGUGCUACACAUCGUAUGUACCGAAUCGGUUUUUUGGGUUUUUUGGGUUUUUUGGAAAGUAUUAUGUUACGCCGUUCGGAUCUGCA | -0.924 |
| UUUGAAGAUCAGCUUCAGCAAUGGUUGUCUGAAGACUCAGGAGCAUUUACGGAUUUAACUUCCCUUCCCCUCUAUCUUCCUCAGACUCUA | -0.214 |
| UGGCCCUGGUGGCAUGCGGGGAGGAAGAGGUGUCCUCAUGGAUCGUGGUGGUCCCGGUGGAAUGUUCAGAGGUGGCCGUGGUGGAGACAG | 0.103 |
| CAAGUCCUGUGCUACACAUCGUAUGUACCGAAUCGGGGAAAGGGGAAAGGGAAAGGAAAGUAUUAUGUUACGCCGUUCGGAUCUGCACUU | -0.0499 |
| UGAAUCCUUCCUUGAUGAUGAAGAGGUAUGUCAACAAGGGUAAUAAUUUGUUUUCUUCUGAUUACUCUCAUAUUUUUAUUAUCUUUUAUU | -1.43 |
| CAAGUCCUGUGCUACACAUCGUAUGUACCGAAUCGGGUGGGAAAAAAAGGGAGGGAAAGUAUUAUGUUACGCCGUUCGGAUCUGCACUUC | 0.48 |

Study 4 — technique: RNA Bind-n-Seq; form: RNA; medium: in vitro; tested at: 365 nM; reference: no-protein control; reading: higher = stronger binding
Target: RNA binding protein fox-1 homolog 2, RRM domain, GST-SBP tag (RBFOX2, Homo sapiens, UniProt O43251-10, residues 100-194)
Setting: natural RNA segment, single round, ends assumed
All sequences stand within: GGGAGUUCUACAGUCCGACGAUC … UGGAAUUCUCGGGUGCCAA
Residues (chain): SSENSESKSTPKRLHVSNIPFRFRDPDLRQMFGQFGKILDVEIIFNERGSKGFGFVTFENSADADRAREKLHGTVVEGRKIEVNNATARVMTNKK
| Oligonucleotide | RBNS enrichment (R) |
| --- | --- |
| CUUGACUACCUGAGUUUCCUGUCUCUACUUCUUUUCAGCUUCUGGGACCACAGGCCUGUACCACCAUGGCCAGCUUUAGAGAGUAAAACAUUUUAAUUUGUUCUUGAUUU | 0.611 |
| GCCUGGUCUCACCGUGUGCAGCCUUGUGGUUUAUGCUUAAAUGUACAUUUUCCUGCUGGUAAAAGGAGAAACUGAGAGGUGUCCUGCAGACCGGCUGACCACUCCUUUUG | 0.382 |
| AAAUGACAAAACCCUCAGUUGAGCCUGAGCCCCCGGCGCGGGGGCUGCUACACUACAGGACACCCAGCAUCGGCUUUGACUGCAGACUGUUCACCCACACGAGCCCUGUG | 0.372 |
| AAGGGAUUAAUUUUCAGACCCCUUUAAAAGUGAGUGCCAUAAAGAGUCAAUAUAUAGUGUUGAAGUGGUAUUUCAGGCUAGGAAUUAUUCCCUUCUCUUGGAAUGUGAAG | 0.627 |
| AGAGAAAACAUUCUAUAGCCCUCCUUCCUAGGUGUUACCAUUCACUGAAUCUUCUCUCAGAGGGAGAUGAGCAAUUGUCAGUCAGGAUAAUUCUGUUUGCUAAAUGUUGC | 0.374 |
| GAACCAUUGGGACCUGAGGCAGGAGUGUCACCUGCGGGAGAAGUCUGCCCGCUGCCCUCUGUCAUCCCAUUCAAGAUUGUGCCAUACCAGCUGAGGUUUUUCCUCUGUCU | 0.254 |
| UUUGGUCCCUGACCUUAUGGCCAUCUUGGAGGUCAGUUGUUCCCUGUGGUUGACUGAACUGCUGUUGCUGUCCACAUUCCACCCUGACCCAUUCCCUGCUUGCGCCUAGG | 0.306 |
| AUACCAAAUGUCUUGCAAAGAAAUGUUAUUAAAACCUUGAAUUUUUACAAAUGUAAAAAACAAAAAGUGUAUUAAUGUAUUUGUUCAGGAAAAGCUACAUACCGAAGGGC | 0.403 |

Excerpt of the above (study 3):
| Oligonucleotide | log2 enrichment |
| --- | --- |
| GUCCUGUGCUACACAUCGUAUGUACCGAAUCGGUUUUUUGGGUUUUUUGGGUUUUUUGGAAAGUAUUAUGUUACGCCGUUCGGAUCUGCA | -0.924 |
| UGAAUCCUUCCUUGAUGAUGAAGAGGUAUGUCAACAAGGGUAAUAAUUUGUUUUCUUCUGAUUACUCUCAUAUUUUUAUUAUCUUUUAUU | -1.43 |
| CAAGUCCUGUGCUACACAUCGUAUGUACCGAAUCGGGGAAAGGGGAAAGGGAAAGGAAAGUAUUAUGUUACGCCGUUCGGAUCUGCACUU | -0.0499 |
| CCUCAAGUCCUGUGCUACACAUCGUAUGUACCGAAUCGGGUGGGAGGGUGGGAAAGUAUUAUGUUACGCCGUUCGGAUCUGCACUUCCAG | 0.349 |
